Assay results collected from several papers.
Protocols differ between the studies behind these lines. ± marks the error that the study gave.

SMILES | system | setting | tissue uptake [%ID/g]
CCCC[C@H](NC(=O)COCCOCCNC(=O)CN1CCN(CC(=O)O)CCN(CC(=O)O)CC1)C(=O)N[C@H]1CC(=O)NCCCC[C@@H](C(N)=O)NC(=O)[C@H](Cc2c[nH]c3ccccc23)NC(=O)[C@H](CCCNC(=N)N)NC(=O)[C@@H](Cc2ccccc2)NC(=O)[C@H](Cc2c[nH]cn2)NC1=O [copper-64 labelled] | C57 mice, brain | intravenous, 0.37 MBq, 4 h | 0.02
CC(C)C[C@H](NC(=O)CN1CCN(CC(=O)O)CCN(CC(=O)O)CC1)C(=O)N[C@@H](CC(C)C)C(=O)N[C@@H](CC(C)C)C(=O)N[C@@H](CC(C)C)C(=O)N[C@@H](CCCNC(=N)N)C(=O)N[C@H](C(=O)N[C@@H](CCCCN)C(=O)N[C@@H](CCCNC(=N)N)C(N)=O)C(C)C [copper-64 labelled] | CD1 mouse, male, liver | intravenous, 15 min | 13 ± 2
N=C(N)NCCC[C@@H]1NC(=O)[C@H](CCCCNC(=O)CNC(=O)CNC(=O)CNC(=O)CC[C@H](NC(=O)CNC(=O)CNC(=O)CNC(=O)CC[C@H](NC(=O)CN2CCN(CC(=O)O)CCN(CC(=O)O)CCN(CC(=O)O)CC2)C(=O)NCC(=O)NCC(=O)NCC(=O)N[C@@H](CCC(=O)NCC(=O)NCC(=O)NCC(=O)NCCCC[C@@H]2NC(=O)[C@@H](Cc3ccccc3)NC(=O)[C@H](CC(=O)O)NC(=O)CNC(=O)[C@H](CCCNC(=N)N)NC2=O)C(=O)NCC(=O)NCC(=O)NCC(=O)NCCCC[C@@H]2NC(=O)[C@@H](Cc3ccccc3)NC(=O)[C@H](CC(=O)O)NC(=O)CNC(=O)[C@H](CCCNC(=N)N)NC2=O)C(=O)NCC(=O)NCC(=O)NCC(=O)NCCCC[C@@H]2NC(=O)[C@@H](Cc3ccccc3)NC(=O)[C@H](CC(=O)O)NC(=O)CNC(=O)[C@H](CCCNC(=N)N)NC2=O)NC(=O)[C@@H](Cc2ccccc2)NC(=O)[C@H](CC(=O)O)NC(=O)CNC1=O [indium-111 labelled] | female athymic nu/nu mice, liver | intravenous, 72 h | 2.01 ± 0.45
Cc1cc(O)cc(C)c1C[C@H](NC(=O)[C@@H]1CCCN1C(=O)[C@H](CCCNC(=N)N)NC(=O)[C@H](CCCNC(=N)N)N(C)C(=O)[C@@H]1CCCN1C(=O)[C@@H](CC(C)C)NC(=O)[C@@H](CC(C)C)NC(=O)[C@@H](CC(C)C)NC(=O)[C@@H](CC(C)C)NC(=O)[C@H](CCCCN)NC(=O)CN1CCN(CC(=O)O)CCN(CC(=O)O)CCN(CC(=O)O)CC1)C(=O)N[C@H](C(=O)N[C@@H](CC(C)C)C(=O)O)C(C)(C)C [lutetium-177 labelled] | CF-1 mouse, liver | iv, 370 kBq, 1 h | 5.64 ± 0.47
CSCC[C@H](NC(=O)[C@H](CC(C)C)NC(=O)[C@H](Cc1c[nH]cn1)NC(=O)CNC(=O)[C@@H](NC(=O)[C@H](C)NC(=O)[C@H](Cc1c[nH]c2ccccc12)NC(=O)[C@H](CCC(N)=O)NC(=O)CCOCCOCCOCCOCCNC(=O)CN1CCN(CC(=O)O)CCN(CC(=O)O)CCN(CC(=O)O)CC1)C(C)C)C(N)=O [indium-111 labelled] | Swiss nu/nu mouse, male, PC-3 tumour xenograft, colon | intravenous, 10 pmol, 1 h | 2.9 ± 1.5
CCCC[C@H](NC(=O)CCCCCCCNC(=O)CN1CCN(CC(=O)O)CCN(CC(=O)O)CC1)C(=O)N[C@H]1CC(=O)NCCCC[C@@H](C(N)=O)NC(=O)[C@H](Cc2c[nH]c3ccccc23)NC(=O)[C@H](CCCNC(=N)N)NC(=O)[C@@H](Cc2ccccc2)NC(=O)[C@H](Cc2c[nH]cn2)NC1=O [copper-64 labelled] | C57 mice, liver | intravenous, 0.37 MBq, 24 h | 0.73 ± 0.01
N=C(N)NCCC[C@@H]1NC(=O)[C@H](CCCCNC(=O)CNC(=O)CNC(=O)CNC(=O)CC[C@H](NC(=O)CNC(=O)CNC(=O)CNC(=O)CN2CCN(CC(=O)O)CCN(CC(=O)O)CCN(CC(=O)O)CC2)C(=O)NCC(=O)NCC(=O)NCC(=O)NCCCC[C@@H]2NC(=O)[C@@H](Cc3ccccc3)NC(=O)[C@H](CC(=O)O)NC(=O)CNC(=O)[C@H](CCCNC(=N)N)NC2=O)NC(=O)[C@@H](Cc2ccccc2)NC(=O)[C@H](CC(=O)O)NC(=O)CNC1=O [indium-111 labelled] | female athymic nu/nu mice, eyes | intravenous, 24 h | 0.32 ± 0.05
CCCC[C@H](NC(=O)CNC(=O)CNC(=O)CN1CCN(CC(=O)O)CCN(CC(=O)O)CCN(CC(=O)O)CC1)C(=O)N[C@H]1CC(=O)NCCCC[C@@H](C(N)=O)NC(=O)[C@H](Cc2c[nH]c3ccccc23)NC(=O)[C@H](CCCNC(=N)N)NC(=O)[C@@H](Cc2ccccc2)NC(=O)[C@H](Cc2c[nH]cn2)NC1=O [lutetium-177 labelled] | C57 mouse, female, whole blood | intravenous, 0.037 MBq, 0.5 h | 2.98 ± 0.38
CC(C)C[C@H](NC(=O)[C@H](Cc1ccc(O)cc1)NC(=O)[C@@H](CCCNC(=N)N)NC(=O)[C@@H](CO)NC(=O)[C@H](Cc1ccccc1)NC(=O)[C@H](CC1CCCCC1)NC(=O)[C@H](CC(=O)O)NC(=O)CN1CCCN2CCN(CCCN(CC(=O)O)CC2)CC1)C(=O)N[C@@H](Cc1c[nH]c2ccccc12)C(=O)N[C@@H](CO)C(=O)O [copper-64 labelled] | female NMRI nude mice, blood | 22 h p.i. | 0.4 ± 0.1
N=C(N)NCCC[C@@H]1NC(=O)[C@H](CCCCNC(=O)CC[C@H](NC(=O)CC[C@H](NC(=O)CN2CCN(CC(=O)O)CCN(CC(=O)O)CCN(CC(=O)O)CC2)C(=O)N[C@@H](CCC(=O)NCCCC[C@@H]2NC(=O)[C@@H](Cc3ccccc3)NC(=O)[C@H](CC(=O)O)NC(=O)CNC(=O)[C@H](CCCNC(=N)N)NC2=O)C(=O)NCCCC[C@@H]2NC(=O)[C@@H](Cc3ccccc3)NC(=O)[C@H](CC(=O)O)NC(=O)CNC(=O)[C@H](CCCNC(=N)N)NC2=O)C(=O)NCCCC[C@@H]2NC(=O)[C@@H](Cc3ccccc3)NC(=O)[C@H](CC(=O)O)NC(=O)CNC(=O)[C@H](CCCNC(=N)N)NC2=O)NC(=O)[C@@H](Cc2ccccc2)NC(=O)[C@H](CC(=O)O)NC(=O)CNC1=O [indium-111 labelled] | female athymic nu/nu mice, eyes | intravenous, 24 h | 0.64 ± 0.1

For quick reference, copied from above:
SMILES | system | setting | tissue uptake [%ID/g]
CCCC[C@H](NC(=O)COCCOCCNC(=O)CN1CCN(CC(=O)O)CCN(CC(=O)O)CC1)C(=O)N[C@H]1CC(=O)NCCCC[C@@H](C(N)=O)NC(=O)[C@H](Cc2c[nH]c3ccccc23)NC(=O)[C@H](CCCNC(=N)N)NC(=O)[C@@H](Cc2ccccc2)NC(=O)[C@H](Cc2c[nH]cn2)NC1=O [copper-64 labelled] | C57 mice, brain | intravenous, 0.37 MBq, 4 h | 0.02
